Assay results from different studies.
Each numbered part is a random draw from the data of one study; scales do not carry over between parts.
UniProt P00519, sequence (whole entry, unmodified, looked up): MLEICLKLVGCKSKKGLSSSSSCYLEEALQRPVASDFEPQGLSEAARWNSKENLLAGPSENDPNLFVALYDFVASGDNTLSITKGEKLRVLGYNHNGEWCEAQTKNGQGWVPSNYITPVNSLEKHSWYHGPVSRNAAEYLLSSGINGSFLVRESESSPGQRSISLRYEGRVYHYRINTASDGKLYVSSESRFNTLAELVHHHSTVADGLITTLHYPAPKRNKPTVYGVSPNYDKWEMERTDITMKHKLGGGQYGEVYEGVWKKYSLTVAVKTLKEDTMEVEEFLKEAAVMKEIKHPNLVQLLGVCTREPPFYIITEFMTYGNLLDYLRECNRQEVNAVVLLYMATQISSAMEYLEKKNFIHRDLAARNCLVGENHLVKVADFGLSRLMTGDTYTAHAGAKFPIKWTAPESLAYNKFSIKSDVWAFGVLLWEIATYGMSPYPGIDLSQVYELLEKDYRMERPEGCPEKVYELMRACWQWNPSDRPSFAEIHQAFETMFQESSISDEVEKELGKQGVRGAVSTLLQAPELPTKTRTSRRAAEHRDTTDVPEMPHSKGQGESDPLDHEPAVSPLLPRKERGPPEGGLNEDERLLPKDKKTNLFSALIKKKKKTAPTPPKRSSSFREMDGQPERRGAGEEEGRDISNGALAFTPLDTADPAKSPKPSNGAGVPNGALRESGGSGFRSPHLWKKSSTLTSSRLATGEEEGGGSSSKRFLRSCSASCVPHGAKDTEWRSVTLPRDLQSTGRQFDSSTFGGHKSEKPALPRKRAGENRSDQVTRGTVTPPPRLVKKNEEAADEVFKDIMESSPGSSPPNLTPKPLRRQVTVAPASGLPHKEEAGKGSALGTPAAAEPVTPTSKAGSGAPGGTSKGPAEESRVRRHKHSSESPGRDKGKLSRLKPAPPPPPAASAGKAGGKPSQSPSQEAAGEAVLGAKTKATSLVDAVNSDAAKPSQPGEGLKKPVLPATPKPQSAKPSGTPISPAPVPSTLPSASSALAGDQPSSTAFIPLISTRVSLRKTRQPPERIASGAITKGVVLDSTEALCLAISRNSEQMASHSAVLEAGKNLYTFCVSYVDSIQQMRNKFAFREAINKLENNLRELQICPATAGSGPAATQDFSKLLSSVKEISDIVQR
UniProt Q9Y3S1, sequence (whole entry, looked up): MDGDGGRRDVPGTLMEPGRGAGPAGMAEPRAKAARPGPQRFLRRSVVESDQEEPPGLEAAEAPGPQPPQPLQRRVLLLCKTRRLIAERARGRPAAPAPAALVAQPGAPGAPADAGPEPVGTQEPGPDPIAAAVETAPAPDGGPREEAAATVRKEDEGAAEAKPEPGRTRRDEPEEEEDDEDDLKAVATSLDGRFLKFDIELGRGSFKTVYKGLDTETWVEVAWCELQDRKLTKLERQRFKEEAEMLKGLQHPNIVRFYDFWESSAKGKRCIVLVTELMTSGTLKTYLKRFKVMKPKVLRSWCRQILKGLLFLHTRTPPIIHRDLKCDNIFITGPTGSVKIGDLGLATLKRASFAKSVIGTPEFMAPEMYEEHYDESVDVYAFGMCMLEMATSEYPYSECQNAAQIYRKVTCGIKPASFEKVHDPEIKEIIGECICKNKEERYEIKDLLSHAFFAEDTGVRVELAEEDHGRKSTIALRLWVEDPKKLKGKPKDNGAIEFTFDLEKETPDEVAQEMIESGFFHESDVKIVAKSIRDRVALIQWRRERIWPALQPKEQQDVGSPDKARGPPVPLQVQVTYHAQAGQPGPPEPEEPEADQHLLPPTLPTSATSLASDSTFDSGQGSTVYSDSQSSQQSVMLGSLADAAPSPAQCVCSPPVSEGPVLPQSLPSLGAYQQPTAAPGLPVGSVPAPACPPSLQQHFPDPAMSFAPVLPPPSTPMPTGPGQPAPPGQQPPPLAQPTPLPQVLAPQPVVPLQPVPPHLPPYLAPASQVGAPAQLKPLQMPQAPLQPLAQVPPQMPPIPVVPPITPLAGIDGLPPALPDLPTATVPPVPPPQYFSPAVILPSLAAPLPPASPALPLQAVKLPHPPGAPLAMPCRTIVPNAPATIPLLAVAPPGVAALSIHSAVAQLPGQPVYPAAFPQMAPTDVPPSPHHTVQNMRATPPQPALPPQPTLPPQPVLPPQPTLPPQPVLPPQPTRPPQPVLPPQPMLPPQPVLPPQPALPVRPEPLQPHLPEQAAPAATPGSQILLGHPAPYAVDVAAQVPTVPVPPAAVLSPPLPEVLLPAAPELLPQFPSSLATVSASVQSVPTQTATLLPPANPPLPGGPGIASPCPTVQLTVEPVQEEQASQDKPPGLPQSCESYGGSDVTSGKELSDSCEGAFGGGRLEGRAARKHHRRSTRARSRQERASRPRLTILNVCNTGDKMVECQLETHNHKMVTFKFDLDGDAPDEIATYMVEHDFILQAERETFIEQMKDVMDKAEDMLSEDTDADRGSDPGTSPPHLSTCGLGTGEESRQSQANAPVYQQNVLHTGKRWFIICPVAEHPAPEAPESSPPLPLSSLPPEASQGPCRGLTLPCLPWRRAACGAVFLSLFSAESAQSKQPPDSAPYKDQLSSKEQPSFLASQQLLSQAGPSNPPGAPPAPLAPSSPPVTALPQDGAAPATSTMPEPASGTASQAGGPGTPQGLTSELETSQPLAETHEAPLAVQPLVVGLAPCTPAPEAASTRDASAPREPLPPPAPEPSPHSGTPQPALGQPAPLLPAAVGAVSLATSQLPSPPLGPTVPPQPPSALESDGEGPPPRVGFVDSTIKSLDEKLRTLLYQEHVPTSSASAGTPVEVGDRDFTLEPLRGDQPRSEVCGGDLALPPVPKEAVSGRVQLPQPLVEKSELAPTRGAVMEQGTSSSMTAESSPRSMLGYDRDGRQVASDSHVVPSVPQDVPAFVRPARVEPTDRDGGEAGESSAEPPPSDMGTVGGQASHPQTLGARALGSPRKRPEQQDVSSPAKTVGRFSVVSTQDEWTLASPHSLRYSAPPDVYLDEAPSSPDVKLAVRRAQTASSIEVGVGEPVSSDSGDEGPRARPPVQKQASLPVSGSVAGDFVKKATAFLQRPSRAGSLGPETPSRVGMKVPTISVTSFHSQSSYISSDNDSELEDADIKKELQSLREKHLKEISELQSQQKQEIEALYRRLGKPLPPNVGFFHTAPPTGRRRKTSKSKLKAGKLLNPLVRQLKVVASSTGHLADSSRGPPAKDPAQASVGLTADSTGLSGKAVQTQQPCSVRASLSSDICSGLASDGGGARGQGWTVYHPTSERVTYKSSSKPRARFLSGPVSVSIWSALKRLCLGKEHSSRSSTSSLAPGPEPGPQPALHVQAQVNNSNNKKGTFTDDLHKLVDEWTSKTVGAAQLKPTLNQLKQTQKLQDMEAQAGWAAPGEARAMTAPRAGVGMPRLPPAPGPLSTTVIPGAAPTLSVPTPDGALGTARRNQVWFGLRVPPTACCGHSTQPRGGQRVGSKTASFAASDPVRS
UniProt Q6PHR2, sequence (whole entry, looked up): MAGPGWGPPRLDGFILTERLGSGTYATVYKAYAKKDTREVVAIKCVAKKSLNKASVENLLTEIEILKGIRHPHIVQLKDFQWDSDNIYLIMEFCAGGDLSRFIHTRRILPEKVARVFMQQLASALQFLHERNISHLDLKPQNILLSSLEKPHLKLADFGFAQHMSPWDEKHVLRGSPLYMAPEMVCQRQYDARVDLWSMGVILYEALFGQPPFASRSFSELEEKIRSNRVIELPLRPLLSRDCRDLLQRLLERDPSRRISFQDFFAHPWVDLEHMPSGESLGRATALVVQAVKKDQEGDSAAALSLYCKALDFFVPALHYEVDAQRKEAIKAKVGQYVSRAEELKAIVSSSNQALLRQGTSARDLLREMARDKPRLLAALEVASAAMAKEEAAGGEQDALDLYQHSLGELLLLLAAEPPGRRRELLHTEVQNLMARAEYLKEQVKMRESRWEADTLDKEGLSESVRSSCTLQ

Block 1 — effect on: cell-free assay; technique: competition with immobilised ligand; concentration: 1 µM
Compound: COc1ccc2c(O[C@@H]3C[C@H]4C(=O)N[C@]5(C(=O)O)CC5/C=C\CCCCC[C@H](NC(=O)OC5CCCC5)C(=O)N4C3)cc(-c3csc(NC(=O)C(C)C)n3)nc2c1C (stereo partly shown)
target | remaining binding [%]
Tyrosine-protein kinase ABL1, phosphorylated (ABL1, Homo sapiens, UniProt P00519, F317L) | 99
Tyrosine-protein kinase ABL1, phosphorylated (ABL1, Homo sapiens, UniProt P00519, F317I) | 76
WNK2 (Homo sapiens, UniProt Q9Y3S1) | 87
TBK1 (Homo sapiens, UniProt Q9UHD2) | 86
RET (Homo sapiens, UniProt P07949) | 91
ULK3 (Homo sapiens, UniProt Q6PHR2) | 93
RIOK2 (Homo sapiens, UniProt Q9BVS4) | 100
EGFR (Homo sapiens, UniProt P00533) | 92
NTRK1 (Homo sapiens, UniProt P04629) | 82
CSK (Homo sapiens, UniProt P41240) | 100
MST1R (Homo sapiens, UniProt Q04912) | 100
MAP3K2 (Homo sapiens, UniProt Q9Y2U5) | 100
MARK3 (Homo sapiens, UniProt P27448) | 95
MAP3K13 (Homo sapiens, UniProt O43283) | 86
FGFR3 (Homo sapiens, UniProt P22607, G697C) | 88

Block 2 — technique: universal PBM; molecule type: double-stranded DNA, one strand shown; matrix: in vitro; concentration: 600 nM; direction: higher = stronger binding
Target: Sal-like protein 4, full length isoform A (SALL4, Homo sapiens, UniProt Q9UJQ4, residues 1-1053)
UniProt Q9UJQ4, sequence (whole entry, looked up): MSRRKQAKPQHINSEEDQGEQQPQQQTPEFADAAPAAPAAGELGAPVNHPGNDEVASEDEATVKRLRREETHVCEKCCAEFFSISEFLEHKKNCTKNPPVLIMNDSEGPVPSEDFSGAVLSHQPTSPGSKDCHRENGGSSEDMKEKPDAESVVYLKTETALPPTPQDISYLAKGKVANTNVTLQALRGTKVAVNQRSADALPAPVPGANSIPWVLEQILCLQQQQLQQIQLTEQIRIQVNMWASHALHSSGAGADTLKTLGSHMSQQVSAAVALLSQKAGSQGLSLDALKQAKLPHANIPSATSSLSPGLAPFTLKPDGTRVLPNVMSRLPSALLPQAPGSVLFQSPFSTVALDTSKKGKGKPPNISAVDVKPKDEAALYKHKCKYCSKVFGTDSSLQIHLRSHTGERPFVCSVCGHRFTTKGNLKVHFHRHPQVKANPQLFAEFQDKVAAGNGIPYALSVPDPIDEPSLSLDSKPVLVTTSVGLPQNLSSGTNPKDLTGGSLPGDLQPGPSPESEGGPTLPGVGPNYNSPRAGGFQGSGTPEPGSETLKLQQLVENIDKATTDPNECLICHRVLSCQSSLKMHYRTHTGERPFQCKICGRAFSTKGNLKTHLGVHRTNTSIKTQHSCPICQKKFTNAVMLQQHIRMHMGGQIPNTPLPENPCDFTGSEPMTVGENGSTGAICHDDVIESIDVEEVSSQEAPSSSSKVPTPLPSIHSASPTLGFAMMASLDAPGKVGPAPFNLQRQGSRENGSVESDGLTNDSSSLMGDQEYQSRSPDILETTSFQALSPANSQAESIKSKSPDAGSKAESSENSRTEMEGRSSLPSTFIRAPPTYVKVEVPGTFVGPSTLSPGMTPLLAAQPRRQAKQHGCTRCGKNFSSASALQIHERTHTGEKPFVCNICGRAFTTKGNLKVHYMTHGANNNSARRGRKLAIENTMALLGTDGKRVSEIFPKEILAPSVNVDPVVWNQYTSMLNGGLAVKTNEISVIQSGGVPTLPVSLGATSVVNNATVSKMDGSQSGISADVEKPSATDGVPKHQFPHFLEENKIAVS
Notes: 8-mer, flanks averaged, mean of replicates
Strand | E-score
AATGCCTG | -0.028
ACAAGGAA | 0.0558
CAGTCTCG | -0.207
GTGGAAGA | 0.0255
ACACGAGC | -0.0634
GATCGTTA | 0.0235
TAGTTAGA | 0.209
ACGTTCTA | 0.0402

Block 3 — effect on: enzyme activity; action: inhibitor; concentration: 0.5 µM; relative to: control
Compound: O=Nc1c(-c2c(O)[nH]c3ccccc23)[nH]c2ccccc12
target | remaining activity
MKNK2 (Homo sapiens, UniProt Q9HBH9) | 82.1%
EPHA5 (Homo sapiens, UniProt P54756) | 86.5%
LRRK2 (Homo sapiens, UniProt Q5S007) | 91.6%
PLK2 (Homo sapiens, UniProt Q9NYY3) | 106%
MAP3K10 (Homo sapiens, UniProt Q02779) | 95.2%
CSNK1A1 (Homo sapiens, UniProt P48729) | 48.2%
WNK2 (Homo sapiens, UniProt Q9Y3S1) | 99.8%
Cyclin-dependent kinase 9, with cyclin T1 (CDK9, Homo sapiens, UniProt P50750) | 75.2%
MAPK12 (Homo sapiens, UniProt P53778) | 99.5%
NEK4 (Homo sapiens, UniProt P51957) | 95%
MAP2K6 (Homo sapiens, UniProt P52564) | 83.5%
AKT3 (Homo sapiens, UniProt Q9Y243) | 98.8%
PRKG1 (Homo sapiens, UniProt Q13976) | 86%
PRKCI (Homo sapiens, UniProt P41743) | 92.2%
LYN (Homo sapiens, UniProt P07948) | 64.6%

Block 4 — target: Sox, HMG box (Pigoraptor chileana); technique: Spec-seq; molecule type: double-stranded DNA, one strand shown; matrix: in vitro; concentration: not given; notes: whole probe, mean of replicates; relative to: not given; direction: lower = stronger binding; all sequences stand within: GAGTCGTCTCGTCAGCAC … CCGTAGAGCACTCAGGTC
Target sequence (chain): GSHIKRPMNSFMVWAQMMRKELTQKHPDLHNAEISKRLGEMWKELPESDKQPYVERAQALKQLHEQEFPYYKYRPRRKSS
Strand | relative binding energy
TGGAGTT | 0.914 ln ratio
CTTAGTT | 0.141 ln ratio
CATGAAT | 0.347 ln ratio
ATTTGTT | -2.18 ln ratio
CATCAGG | 0.215 ln ratio
GAAAGTT | 1.15 ln ratio
CTAGGTT | 0.926 ln ratio
CATAGAA | -0.697 ln ratio

Some of these lines once more (block 2):
Strand | E-score
ACACGAGC | -0.0634
GATCGTTA | 0.0235
CAGTCTCG | -0.207
AATGCCTG | -0.028
TAGTTAGA | 0.209
ACAAGGAA | 0.0558
ACGTTCTA | 0.0402
